Published values collected from several papers.
Lines come from different studies, so protocols differ. Several values in a cell are separate wells, animals, samples, runs or records. ± marks the error that the study gave.

| SMILES | tested on | assay | system | conditions | how to read | endpoint | value |
| --- | --- | --- | --- | --- | --- | --- | --- |
| Cc1cc(NC2CCN(C)CC2)ccc1-c1cc2c(N3CCC[C@H](C(=O)N[C@@H](C)c4ccccc4)C3)ncnc2[nH]1 | NCI-H2228 | cell growth or viability, MTT | – | 5 µg/mL, 72 h | – | inhibition | 93.3% |
| COc1ccc(NC(=O)c2ccc3[nH]c(-c4ccc(N(C)C)cc4)nc3c2)cn1 | HCT116 | IncuCyte | – | concentration not given, 6 h | – | dead cell to confluence ratio | 9.46 and 3.16 and 12.2 |
| CCN(CC)CC(=O)Nc1cccc(-n2cc(-c3ccc4ccc(-c5cn(-c6cccc(NC(=O)CN(CC)CC)c6)nn5)cc4c3)nn2)c1 | RCC4 | PCR angiogenesis array, refers to: PLG | – | 5 x IC50, 4 h, normoxia | reference: untreated | fold regulation | -1.07 |
| O=C(NCc1ccc(OC(F)(F)F)cc1)[C@H]1CCCN(c2ncnc3[nH]c(-c4cc(F)c(F)c(F)c4)cc23)C1 | NCI-H2228 | cell growth or viability, MTT | – | 0.008 µg/mL, 72 h | – | inhibition | -6.73% |
| CC(=O)Oc1ccccc1C(=O)[Se]CC(=O)Nc1cccc(C(F)(F)F)c1 | NCI60 renal subpanel | total growth inhibition, inhibitor | – | five-dose | – | mean TGI | 3.59 µM |
| COC1CN([C@H]2CC[C@H]([C@@]3(C)Oc4c(Cl)cc(C(=O)NCc5c(SC)cc(C)[nH]c5=O)c(C)c4O3)CC2)C1 | – | RNA-seq, refers to: YPEL4 | human, whole blood | dose not given, 24 h | reference: pretreatment baseline | log2 fold change | 2.79 |
| C#CC(C)(C)C(=O)SCCOP1(=O)OCC2OC(n3cnc4c(N)ncnc43)CC2OP(=O)(OCCSC(=O)C(C)(C)C#C)OCC2OC(n3cnc4c(N)ncnc43)CC2O1 (stereo not shown) | THP1-Lucia | IRF reporter gene | – | concentration not given, 4 h | – | STING activation | inactive |
| COCCCCCNc1nc(NCCCCCCN(C)C)c2cc(NC(=O)/C=C/CN(C)C)ccc2n1 | MCF7 | CellTiter-Glo | – | 0.7812 µM, 72 h, unit not given | reference: DMSO-treated cells | viability | 0.916 and 0.977 |
| Cn1ncc2cc(-c3cncc(Cl)c3N3CCC4(CCNC4=O)CC3)ccc21 | LS174T | gene expression, microarray, refers to: SMPD1 mRNA | – | concentration not given, 4 h | reference: untreated cells | log2 fold change | -1.38 |
| CN1CCN(C(=O)c2ccc(-c3cc4c(N5CCC[C@H](C(=O)NCc6ccc(OC(F)(F)F)cc6)C5)ncnc4[nH]3)cc2)CC1 | NCI-H2228 | cell growth or viability, MTT | – | 0.04 µg/mL, 72 h | – | inhibition | 58.2% |
| Cc1ncsc1-c1ccc(C(C)NC(=O)C2CC(O)CN2C(=O)C(NC(=O)CCCCCCCCCCN2CCCC(Nc3ncc(Cl)c(Nc4ccccc4S(=O)(=O)C(C)C)n3)C2)C(C)(C)C)cc1 (stereo not shown) | 22Rv1 | RNA-seq, refers to: SETX mRNA | – | concentration not given | reference: DMSO | log2 fold change | -1.04 |
| [BH3-][P+]1(c2ccccc2)CCCCC1 | SW480 | MTT | – | 72 h | reference: IC50 HaCaT over IC50 SW480 | selectivity index | 13.8 |
| COc1ccccc1-c1ccncc1C(=O)Nc1nnc(OCc2ccc(Cl)cc2)s1 | MDA-MB-231 | – | – | 6 µM | – | colony count | 21 and 33 |
| CC(C)c1ccc(N(C)c2ccc3c(c2)OCC[C@H]3CNc2cnccc2C(=O)O)cc1 | SW480 | cell growth or viability, ATP luminescence | – | 7 days | – | IC50 | 0.00979 µM |
| CNS(=O)(=O)Nc1nccc(Cc2c(C)c3ccc(Oc4ncccc4F)cc3oc2=O)c1F | SU-DHL-16 | cell viability | – | 7 days | – | IC50 | > 1 µM |
| N#C[C@@H]1CC(F)(F)CN1C(=O)CNC(=O)c1ccnc2c(NC(=O)[C@@H](N)CCCCNC(=O)CCOCCOCCOCCOCCOCCOCCNC(=O)CN3CCN(CC(=O)[O-])CCN(CC(=O)[O-])CCN(CC(=O)[O-])CC3)cccc12.[177Lu+3] | U-87 MG | – | – | 4 h | reference: added dose | cell uptake | 9.91 ± 0.22% |
| O=C(NN1C(=O)c2ccccc2NC1c1ccc([N+](=O)[O-])o1)c1ccc([N+](=O)[O-])cc1 (stereo not shown) | LDR | silenced CMV-GFP reporter derepression, qHTS | – | – | – | EC50 | 10 µM |
| O=C(NCc1ccc(OC(F)(F)F)cc1)[C@H]1CCCN(c2ncnc3[nH]c(-c4ccccc4)cc23)C1 | NCI-H2228 | cell growth or viability, MTT | – | 5 µg/mL, 72 h | – | inhibition | 84.2% |
| CN1CCCNC(=O)c2cccc(c2)C(=O)NCCCN(C)CCCNc2cccc3c2C(=O)c2cccc(c2C3=O)NCCC1 | SAS | RNA-Seq, refers to: PEX12 mRNA | – | 1 µM, 6 h | reference: untreated cells | log2 fold change | 1.42 |

Excerpt of the above:
| SMILES | tested on | assay | system | conditions | how to read | endpoint | value |
| --- | --- | --- | --- | --- | --- | --- | --- |
| COc1ccccc1-c1ccncc1C(=O)Nc1nnc(OCc2ccc(Cl)cc2)s1 | MDA-MB-231 | – | – | 6 µM | – | colony count | 21 and 33 |
| O=C(NCc1ccc(OC(F)(F)F)cc1)[C@H]1CCCN(c2ncnc3[nH]c(-c4ccccc4)cc23)C1 | NCI-H2228 | cell growth or viability, MTT | – | 5 µg/mL, 72 h | – | inhibition | 84.2% |
